# Published values collected from several papers.
# ± gives the spread as reported.
Compound,tested on,assay,test system,setting,scale,quantity,result
O=C(N/N=C/c1ccc2c(ccc[n+]2Cc2ccccc2)c1)N/N=C/c1ccc2c(ccc[n+]2Cc2ccccc2)c1,myc22 MYC G4-DNA parallel,FRET melting,,"1 µM, K1 buffer, DNA 0.2 µM, with: ds26 10 µM",,ΔTm,5.7 ± 0.2 °C
COC1CN([C@H]2CC[C@H]([C@@]3(C)Oc4c(Cl)cc(C(=O)NCc5c(SC)cc(C)[nH]c5=O)c(C)c4O3)CC2)C1,,"RNA-seq, refers to: DYNC2H1 mouse homolog","mouse, HT-1376 xenograft, whole blood",dose not given,relative to: vehicle,log2 fold change,0.7
C[n+]1ccc(/C=N/NC(=O)c2cccc(C(=O)N/N=C/c3cc[n+](C)cc3)n2)cc1,myc22 MYC G4-DNA parallel,FRET melting,,"1 µM, K1 buffer, DNA 0.2 µM, with: ds26 10 µM",,ΔTm,5.2 ± 0.3 °C
Cc1ncsc1-c1ccc(C(C)NC(=O)C2CC(O)CN2C(=O)C(NC(=O)CCCCCCCCCCN2CCCC(Nc3ncc(Cl)c(Nc4ccccc4S(=O)(=O)C(C)C)n3)C2)C(C)(C)C)cc1 (stereo not drawn),22Rv1,"RNA-seq, refers to: SENP8 mRNA",,concentration not given,relative to: DMSO,log2 fold change,-1.45
CNS(=O)(=O)Nc1nccc(Cc2c(C)c3ccc(Oc4ncccc4F)cc3oc2=O)c1F,Hs 700T,cell viability,,7 days,,IC50,0.475 µM
C=CC(=O)Nc1cccc(Cn2ncc3cnc(Nc4cnn(CCOC)c4)nc32)c1,PIK3C2B human,"binding, KINOMEscan",,100 nM,lower = stronger binding,percent of control,79%
CN1CCCNC(=O)c2cccc(c2)C(=O)NCCCN(C)CCCNc2cccc3c2C(=O)c2cccc(c2C3=O)NCCC1,SAS,"RNA-Seq, refers to: KLF10 mRNA",,"5 µM, 6 h",relative to: untreated cells,log2 fold change,2.31
O=C(N/N=C/c1ccc2c(ccc[n+]2Cc2ccccc2)c1)c1ccc2ccc3ccc(C(=O)N/N=C/c4ccc5c(ccc[n+]5Cc5ccccc5)c4)nc3c2n1,myc22 MYC G4-DNA parallel,FRET melting,,"1 µM, K1 buffer, DNA 0.2 µM, with: ds26 10 µM",,ΔTm,19.1 ± 0.7 °C
Nc1ncc(-c2cc(-c3cnn(CC(F)(F)F)c3)ncc2F)nc1C(=O)NC1CNCC(F)C1 (stereo not drawn),EPHA8,KINOMEscan,,1 µM,relative to: DMSO control,remaining binding,95%

# Repeated from above:
Compound,tested on,assay,test system,setting,scale,quantity,result
CNS(=O)(=O)Nc1nccc(Cc2c(C)c3ccc(Oc4ncccc4F)cc3oc2=O)c1F,Hs 700T,cell viability,,7 days,,IC50,0.475 µM
